Measured values collected from several papers.
Lines come from different studies, so protocols differ. Several values in a cell are separate wells, animals, samples, runs or records. ± marks the error that the study gave.
uncharacterized protein: uncharacterized protein (Streptococcus mutans serotype c, UniProt Q8DS94)
rhlR: HTH-type quorum-sensing regulator RhlR (rhlR, Pseudomonas aeruginosa, UniProt P54292)
UniProt P54292, sequence (whole entry, looked up): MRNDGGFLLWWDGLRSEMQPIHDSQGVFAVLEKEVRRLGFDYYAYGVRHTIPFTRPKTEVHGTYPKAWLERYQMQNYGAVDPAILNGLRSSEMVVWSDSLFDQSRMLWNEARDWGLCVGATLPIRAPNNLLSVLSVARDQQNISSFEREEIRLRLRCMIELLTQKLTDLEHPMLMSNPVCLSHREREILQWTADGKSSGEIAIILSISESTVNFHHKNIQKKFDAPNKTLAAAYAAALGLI
UniProt P25090, sequence (whole entry, looked up): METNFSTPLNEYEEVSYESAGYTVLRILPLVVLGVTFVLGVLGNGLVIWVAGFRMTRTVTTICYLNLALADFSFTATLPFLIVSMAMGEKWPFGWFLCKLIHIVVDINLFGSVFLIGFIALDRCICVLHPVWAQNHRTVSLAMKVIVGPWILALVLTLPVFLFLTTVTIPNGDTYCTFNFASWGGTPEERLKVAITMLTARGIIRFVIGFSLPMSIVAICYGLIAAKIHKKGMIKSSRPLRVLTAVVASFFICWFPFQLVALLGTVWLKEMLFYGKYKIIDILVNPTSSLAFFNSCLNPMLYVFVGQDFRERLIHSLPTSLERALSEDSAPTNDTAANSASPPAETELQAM
UniProt P32245, sequence (whole entry, unmodified, looked up): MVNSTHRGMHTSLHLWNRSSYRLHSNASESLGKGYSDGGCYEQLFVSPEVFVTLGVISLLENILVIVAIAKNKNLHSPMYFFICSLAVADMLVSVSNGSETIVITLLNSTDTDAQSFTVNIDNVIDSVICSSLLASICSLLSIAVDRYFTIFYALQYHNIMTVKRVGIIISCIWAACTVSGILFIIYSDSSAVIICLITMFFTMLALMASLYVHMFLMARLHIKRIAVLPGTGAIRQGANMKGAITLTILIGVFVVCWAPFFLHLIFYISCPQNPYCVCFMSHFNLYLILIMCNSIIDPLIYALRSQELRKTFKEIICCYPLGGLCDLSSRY
UniProt P28223, sequence (whole entry, looked up): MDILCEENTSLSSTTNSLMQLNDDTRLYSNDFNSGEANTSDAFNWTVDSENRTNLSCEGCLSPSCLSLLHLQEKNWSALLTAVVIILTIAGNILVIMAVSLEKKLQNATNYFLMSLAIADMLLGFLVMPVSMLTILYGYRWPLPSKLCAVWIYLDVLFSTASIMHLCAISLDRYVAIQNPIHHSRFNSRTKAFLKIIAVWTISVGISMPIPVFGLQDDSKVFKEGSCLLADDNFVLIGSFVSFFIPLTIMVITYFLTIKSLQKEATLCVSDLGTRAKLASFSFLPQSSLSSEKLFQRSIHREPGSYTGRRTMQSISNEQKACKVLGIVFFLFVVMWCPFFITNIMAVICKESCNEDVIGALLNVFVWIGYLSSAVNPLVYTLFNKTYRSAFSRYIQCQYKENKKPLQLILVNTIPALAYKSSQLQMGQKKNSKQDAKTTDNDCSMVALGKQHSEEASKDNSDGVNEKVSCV
UniProt P13631, sequence (whole entry, looked up): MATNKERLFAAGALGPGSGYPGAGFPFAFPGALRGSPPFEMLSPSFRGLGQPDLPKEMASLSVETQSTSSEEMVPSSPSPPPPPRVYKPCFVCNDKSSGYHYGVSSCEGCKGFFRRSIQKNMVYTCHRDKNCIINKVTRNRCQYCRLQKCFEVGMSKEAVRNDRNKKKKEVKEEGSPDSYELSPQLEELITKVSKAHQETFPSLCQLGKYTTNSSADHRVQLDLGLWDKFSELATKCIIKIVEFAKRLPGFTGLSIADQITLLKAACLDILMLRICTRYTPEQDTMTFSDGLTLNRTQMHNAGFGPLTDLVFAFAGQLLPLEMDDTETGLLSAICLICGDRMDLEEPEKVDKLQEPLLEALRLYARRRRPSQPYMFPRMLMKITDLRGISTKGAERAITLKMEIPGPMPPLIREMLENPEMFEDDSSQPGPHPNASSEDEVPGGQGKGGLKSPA

CC(C)C[C@H](NC(=O)[C@H](CO)NC(=O)CN)C(=O)N[C@@H](CO)C(=O)N[C@H](C(=O)N[C@@H](Cc1ccccc1)C(=O)N[C@@H](Cc1ccccc1)C(=O)N[C@@H](CCCNC(=N)N)C(=O)N[C@@H](CC(C)C)C(=O)N[C@@H](Cc1ccccc1)C(=O)N[C@@H](CC(N)=O)C(=O)N[C@@H](CCCNC(=N)N)C(=O)N[C@@H](CO)C(=O)N[C@@H](Cc1ccccc1)C(=O)N[C@H](C(=O)N[C@@H](CCC(N)=O)C(=O)N[C@@H](C)C(=O)O)[C@@H](C)O)[C@@H](C)O — EC50 (uncharacterized protein; Streptococcus mutans): 0.0048 µM
CC[C@H](C)[C@H](NC(=O)[C@H](Cc1ccccc1)NC(=O)[C@H](Cc1c[nH]cn1)NC(=O)[C@@H](NC(=O)[C@H](CCC(N)=O)NC(=O)[C@H](CCCNC(=N)N)NC(=O)[C@@H](NC(=O)[C@@H](N)CCC(=O)O)[C@@H](C)CC)[C@@H](C)O)C(=O)N[C@@H](Cc1ccccc1)C(=O)N[C@@H](Cc1ccccc1)C(=O)N[C@@H](Cc1ccccc1)C(=O)N[C@@H](Cc1ccccc1)C(=O)N[C@@H](Cc1ccccc1)C(=O)N[C@@H](CCCCN)C(=O)N[C@@H](CCCNC(=N)N)C(=O)N[C@@H](CCCNC(=N)N)C(=O)O — EC50 (histidine kinase ComD (Streptococcus pneumoniae serotype 2, UniProt A0A0H2ZM50); reporter gene, agonist; Streptococcus pneumoniae, D39 comX::lacZ; 30 min, pH 7.3, 37 °C): > 10 µM
Cc1cc(C2=CCN(CC3OCCO3)CC2)cc([N+](=O)[O-])c1N — EC50 (5-hydroxytryptamine receptor 2A (HTR2A, Homo sapiens, UniProt P28223)): 0.933 µM
O=C(N[C@H]1CCOC1=O)C1CCCC1 — EC50 (rhlR; reporter gene, agonist; PAO-JP2 prhlI-LVAgfp; added: OdDHL 100 nM): 4.5 µM and 4.6 µM
CC[C@H](C)[C@H](NC(=O)[C@H](Cc1ccccc1)NC(=O)[C@@H](N)CO)C(=O)N[C@@H](CCCCN)C(=O)N1CCC[C@H]1C(=O)N[C@@H](CC(N)=O)C(=O)N[C@@H](CC(N)=O)C(=O)N[C@H](C(=O)N1CCC[C@H]1C(=O)N[C@@H](CCCNC(=N)N)C(=O)N[C@H](C(N)=O)C(C)C)C(C)C — EC50 (Ecdysis triggering hormone receptor A (Aedes aegypti, UniProt A7J264)): ~0.764 µM
CC1(C)CCC(C)(C)c2c1cc(C(=O)Nc1cc(F)c(C(=O)O)c(F)c1)c(O)c2Cl — EC50 (Retinoic acid receptor gamma (RARG, Homo sapiens, UniProt P13631); reporter gene, agonist, luciferase): > 5 µM
CC(C)C[C@H](NC(=O)[C@H](CCCNC(=N)N)NC(=O)[C@H](Cc1ccccc1)NC(=O)[C@H](Cc1ccccc1)NC(=O)[C@@H](NC(=O)[C@H](CO)NC(=O)[C@H](CC(C)C)NC(=O)[C@@H](CO)NC(=O)CNC(=O)[C@@H](N)CO)[C@@H](C)O)C(=O)N[C@@H](Cc1ccccc1)C(=O)N[C@@H](CC(N)=O)C(=O)N[C@@H](CCCNC(=N)N)C(=O)N[C@@H](CO)C(=O)N[C@@H](Cc1ccccc1)C(=O)N[C@H](C(=O)N[C@@H](CCC(N)=O)C(=O)N[C@@H](C)C(=O)O)[C@@H](C)O — EC50 (uncharacterized protein; Streptococcus mutans): 0.0094 µM
O=C(NC1CCCC1=O)C1CCC1 (stereo not drawn) — EC50 (rhlR; reporter gene, agonist): 5.94 µM
CC(C)C[C@H](NC(=O)[C@H](C)NC(=O)[C@H](CCC(N)=O)NC(=O)[C@@H](NC(=O)[C@H](Cc1ccccc1)NC(=O)[C@H](CO)NC(=O)[C@H](CCCNC(=N)N)NC(=O)[C@H](CC(N)=O)NC(=O)[C@H](Cc1ccccc1)NC(=O)[C@H](CC(C)C)NC(=O)[C@H](CCCNC(=N)N)NC(=O)[C@H](Cc1ccccc1)NC(=O)[C@H](Cc1ccccc1)NC(=O)[C@@H](NC(=O)[C@H](CO)NC(=O)[C@@H](CC(C)C)NC(=O)[C@H](CO)NC(=O)CNC(=O)[C@@H](N)CO)[C@@H](C)O)[C@@H](C)O)C(=O)NCC(=O)N[C@@H](CCCCN)C(=O)O — EC50 (uncharacterized protein; Streptococcus mutans): 0.39 µM
CC[C@H](C)[C@H](NC(=O)[C@@H]1CCC(=O)N1)C(=O)N[C@H](C(=O)N[C@@H](Cc1ccccc1)C(=O)N[C@@H](CO)C(=O)N[C@@H](CCCNC(=N)N)C(=O)N[C@@H](CC(=O)O)C(=O)N[C@@H](Cc1c[nH]c2ccccc12)C(=O)N[C@@H](CO)C(=O)NCC(N)=O)[C@@H](C)O — EC50 (Adipokinetic hormone receptor (Bombyx mori, UniProt Q8T6U9)): 1.07 ± 0.33 µM
CC(=O)N[C@@H](CCCNC(=N)N)C(=O)N[C@H](Cc1ccc(Cl)cc1)C(=O)N1Cc2ccccc2C[C@H]1C(=O)N[C@H](Cc1ccc([N+](=O)[O-])cc1)C(N)=O — EC50 (Melanocortin receptor 4 (MC4R, Homo sapiens, UniProt P32245, L106P); reporter gene, agonist): ~0.003 µM
CC[C@H](C)[C@H](NC(=O)[C@H](C)NC(=O)[C@H](CCC(=O)O)NC(=O)[C@H](C)NC(=O)[C@H](CC(C)C)NC(=O)CNC(=O)[C@@H](NC(=O)[C@H](CCSC)NC=O)[C@@H](C)O)C(=O)N[C@@H](C)C(=O)N[C@@H](CC(N)=O)C(=O)N[C@H](C(=O)N[C@H](C(=O)N[C@@H](CCC(N)=O)C(=O)N[C@@H](C)C(=O)N[C@@H](C)C(=O)N[C@@H](CCC(N)=O)C(=O)N[C@@H](CCC(N)=O)C(=O)N[C@@H](Cc1c[nH]cn1)C(=O)N[C@@H](CC(=O)O)C(=O)N[C@@H](CO)C(=O)N[C@H](C(=O)N[C@@H](CCCCN)C(=O)N[C@@H](CC(C)C)C(=O)NCC(=O)N[C@H](C(=O)N[C@@H](CO)C(=O)N[C@H](C(=O)N[C@H](C(=O)N[C@@H](CC(=O)O)C(=O)N[C@H](C(=O)N[C@@H](C)C(=O)N[C@@H](CC(N)=O)C(=O)NCC(=O)N[C@H](C(=O)NCC(=O)N[C@@H](CC(C)C)C(=O)N[C@@H](CC(C)C)C(=O)NCC(=O)N[C@@H](CCCCN)C(=O)N[C@@H](CC(C)C)C(=O)N[C@@H](Cc1ccccc1)C(=O)NCC(=O)N[C@@H](Cc1ccccc1)C(=O)O)C(C)C)[C@@H](C)CC)C(C)C)[C@@H](C)CC)[C@@H](C)O)C(C)C)C(C)C)[C@@H](C)O — EC50 (N-formyl peptide receptor 2 (FPR2, Homo sapiens, UniProt P25090); calcium flux, agonist, flow cytometry, Fluo-3; 37 °C): 0.389 µM
